# Experimental data from different studies.
# Compare with care: the assays were run in different laboratories. Numbers after ± are the reported error.
# B1: enzyme (Nicotiana tabacum, UniProt A0A1S3XCJ5); chain MLPQLSNSSGSGYSWMQDNSASCGNFSRNGRKQGPLNSVAPTERAQISSVDDLYDFICSGPLINKIGLTPEKVAESIDKWIEYGFRLCRLFQLNQLALNEPQKIRLYHYYIPVFLWCEQEISQHSSKFKDNEEIPPLVIGFSAPQGCGKTTLVFALEYLFKITGRKAATLSIDDFYLTAEEQAKLRENNPGNLLLEFRGNAGSHDLSLSVETLAELSKVTKEGVKMKLPRYDKSAYNGRGDRADPSTWPEVEGPLTVILFEGWMLGFKPLPPEAVKAVDPQLETVNKNLEAYYDAWYKYVKSWIIIKIHDPSYVYQWRLQAEIAMRADGNPGMSDEEVRDFVSRYLPAYKAYLPTLYSEGPTGADPEHVLLVEIDEGRNPILGS
# B2: enzyme (UniProt I4BZH5); chain MIWPKATDILLAAQFLREKVRHTPIEKSLDLSDIAGGSVYLKWENLQPCGSFKIRGALNKMFHMSEEERERGVVTASSGNHAQGVAIAARMLNVKAVIFVPGVCPANKQRAIKRLGGDVVDLRVVGHLYDDAEQAARQLARSEGLTYVSSYEDHHIICGAGTVGLEMLLDVPDLDMLVVPAGGGGLISGIATIAKALSPGIRIVGVQSVASMPWVVSWQSGRVIDVTYSDSLADGLTGSIPQSLLDLARVRVDDFMAVTEDDIAKAIAFLHRRHHQIVEGAGAVGVAALLSGRVSAKGRRVGVVISGGNIDHEVLMNILEKVTL
# B3: ADSL R303C (Homo sapiens, UniProt P30566); chain MAAGGDHGSPDSYRSPLASRYASPEMCFVFSDRYKFRTWRQLWLWLAEAEQTLGLPITDEQIQEMKSNLENIDFKMAAEEEKRLRHDVMAHVHTFGHCCPKAAGIIHLGATSCYVGDNTDLIILRNALDLLLPKLARVISRLADFAKERASLPTLGFTHFQPAQLTTVGKRCCLWIQDLCMDLQNLKRVRDDLRFRGVKGTTGTQASFLQLFEGDDHKVEQLDKMVTEKAGFKRAFIITGQTYTRKVDIEVLSVLASLGASVHKICTDIRLLANLKEMEEPFEKQQIGSSAMPYKRNPMRSECCCSLARHLMTLVMDPLQTASVQWFERTLDDSANRRICLAEAFLTADTILNTLQNISEGLVVYPKVIERRIRQELPFMATENIIMAMVKAGGSRQDCHEKIRVLSQQAASVVKQEGGDNDLIERIQVDAYFSPIHSQLDHLLDPSSFTGRASQQVQRFLEEEVYPLLKPYESVMKVKAELCL
# B4: bglA S39T (Acetivibrio thermocellus, UniProt P26208); chain MSKITFPKDFIWGSATAAYQIEGAYNEDGKGESIWDRFTHTPGNIADGHTGDVACDHYHRYEEDIKIMKEIGIKSYRFSISWPRIFPEGTGKLNQKGLDFYKRLTNLLLENGIMPAITLYHWDLPQKLQDKGGWKNRDTTDYFTEYSEVIFKNLGDIVPIWFTHNEPGVVSLLGHFLGIHAPGIKDLRTSLEVSHNLLLSHGKAVKLFREMNIDAQIGIALNLSYHYPASEKAEDIEAAELSFSLAGRWYLDPVLKGRYPENALKLYKKKGIELSFPEDDLKLISQPIDFIAFNNYSSEFIKYDPSSESGFSPANSILEKFEKTDMGWIIYPEGLYDLLMLLDRDYGKPNIVISENGAAFKDEIGSNGKIEDTKRIQYLKDYLTQAHRAIQDGVNLKAYYLWSLLDNFEWAYGYNKRFGIVHVNFDTLERKIKDSGYWYKEVIKNNGF
# B5: enzyme A477T (Populus trichocarpa, UniProt A0A2K1ZZ60); chain ITRQYTFNITHKNFTRLCHTRSLVTVNGQFPGPRLVAREGDQVLVKVVNHVAENITIHWHGVRQLTSGWADGPAYVTQCPIQTGQAYTYNFTITGQRGTLLWHAHISWLRSSLYGPIIILPKLNESYPFKKPYKEIPILFGEWFNVDPEAVIAQALQTGAGPNVSDAYTINGLPGPLYNCSAKDTYKLKVKPGKTYLLRLINAALNDELFFSIANHTLTVVEADAVYVKPFEADTLLISPGQTTNVLLKTKPHLPNATFYMFAGPYFSGMGSFDNSTTAGVLVYKHPSSNNHLKKLPTLKPTLPPINATGFVANFTKKFRSLANAKFPANVPQTVDRKFFFTVGLGTNPCPKNTTCQGPNNNTKFAASINNVSFVLPSVALLQSYFFGQSNGVFTSDFPQNPTIPFNYTGTPPNNTMVSNGTKAVVLTFNTSVELVMQGTSIVTAESHPLHLHGFNFFVVGQGFGNYDPNKDPSNFNLVDPMERNTAGVPAGGWIAIRFLADNPGVWFMHCHLDVHTSWGLRMAWIVLDGPQPNQKIPPPPSDLPKC
# B6: enzyme (Listeria innocua, UniProt Q927X3); chain MYFQKARLIHAELPLLAPFKTSYGELKSKDFYIIELINEEGIHGYGELEAFPLPDYTEETLSSAILIIKEQLLPLLAQRKIRKPEEIQELFSWIQGNEMAKAAVELAVWDAFAKMEKRSLAKMIGATKESIKVGVSIGLQQNVETLLQLVNQYVDQGYERVKLKIAPNKDIQFVEAVRKSFPKLSLMADANSAYNREDFLLLKELDQYDLEMIEQPFGTKDFVDHAWLQKQLKTRICLDENIRSVKDVEQAHSIGSCRAINLKLARVGGMSSALKIAEYCALNEILVWCGGMLEAGVGRAHNIALAARNEFVFPGDISASNRFFAEDIVTPAFELNQGRLKVPTNEGIGVTLDLKVLKKYTKSTEEILLNKGWS
# B7: enzyme (Enterococcus faecalis, UniProt Q836M4); chain MEIHFEKVTSDNRKAVENLQVFAEQQAFIESMAENLKESDQFPEWESAGIYDGNQLIGYAMYGRWQDGRVWLDRFLIDQRFQGQGYGKAACRLLMLKLIEKYQTNKLYLSVYDTNSSAIRLYQQLGFVFNGELDTNGERVMEWTHQNK
# Chain of UniProt O95551 (whole entry, looked up): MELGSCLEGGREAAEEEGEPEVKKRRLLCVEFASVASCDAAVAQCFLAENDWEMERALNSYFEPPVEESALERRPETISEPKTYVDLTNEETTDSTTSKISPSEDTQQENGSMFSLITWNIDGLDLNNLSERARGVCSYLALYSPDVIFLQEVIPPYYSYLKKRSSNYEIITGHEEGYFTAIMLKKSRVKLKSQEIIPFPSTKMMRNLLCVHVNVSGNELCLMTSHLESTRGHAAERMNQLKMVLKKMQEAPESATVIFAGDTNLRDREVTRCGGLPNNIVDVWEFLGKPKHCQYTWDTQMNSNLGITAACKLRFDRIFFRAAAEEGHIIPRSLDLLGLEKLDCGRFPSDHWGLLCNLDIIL
# Chain of UniProt Q5JHM5 (whole entry, looked up): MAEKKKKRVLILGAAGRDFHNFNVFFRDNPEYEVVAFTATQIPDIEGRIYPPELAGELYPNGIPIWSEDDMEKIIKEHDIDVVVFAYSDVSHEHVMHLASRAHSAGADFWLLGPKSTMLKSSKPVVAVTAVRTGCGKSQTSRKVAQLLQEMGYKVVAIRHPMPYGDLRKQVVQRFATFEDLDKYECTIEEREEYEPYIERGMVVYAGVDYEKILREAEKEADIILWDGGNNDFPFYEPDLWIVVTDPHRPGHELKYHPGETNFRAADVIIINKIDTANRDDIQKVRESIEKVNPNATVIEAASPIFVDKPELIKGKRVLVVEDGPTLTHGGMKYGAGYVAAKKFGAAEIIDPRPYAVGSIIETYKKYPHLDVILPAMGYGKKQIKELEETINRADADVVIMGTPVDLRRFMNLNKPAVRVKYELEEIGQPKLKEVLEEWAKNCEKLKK
Substance,target or system,assay,test system,setting,how to read,quantity,value
"fcl (Campylobacter jejuni, UniProt F2X7A6)",Nc1nc2c(ncn2[C@@H]2O[C@H](COP(=O)(O)OP(=O)(O)O[C@H]3O[C@@H](CCO)C(=O)[C@H](O)[C@@H]3O)[C@@H](O)[C@H]2O)c(=O)[nH]1,steady-state kinetics,,"pH 7.5, 25 °C, apparent",,kcat,0.27 ± 0.01 s⁻¹
B1 (enzyme),Nc1ncnc2c1ncn2[C@@H]1O[C@H](COP(=O)(O)OP(=O)(O)OP(=O)(O)O)[C@@H](O)[C@H]1O,steady-state kinetics,,"pH 7.8, 30 °C",,kcat,57.8 ± 1.11 s⁻¹
B2 (enzyme),N=C(N)NCCC[C@H](N)C(=O)O,steady-state kinetics,,"pH 8, 30 °C",,kcat,8.66 ± 0.25 s⁻¹
"enzyme (Thermococcus kodakarensis, UniProt Q5JHM5)",N=C(N)NCCC[C@H](N)C(=O)O,steady-state kinetics,,"pH 7.5, 80 °C",,kcat,28.6 ± 0.2 s⁻¹
B3 (ADSL R303C),Nc1c(C(=O)N[C@@H](CC(=O)O)C(=O)O)ncn1[C@@H]1O[C@H](COP(=O)(O)O)[C@@H](O)[C@H]1O,steady-state kinetics,,"pH 7.4, 25 °C",,kcat,27.2 ± 0.4 s⁻¹
B4 (bglA S39T),O=[N+]([O-])c1ccc(O[C@@H]2O[C@H](CO)[C@@H](O)[C@H](O)[C@H]2O)cc1,steady-state kinetics,,"pH 5.5, 60 °C",,kcat,260 ± 8 s⁻¹
"enzyme (Aptenodytes forsteri, UniProt A0A087QWN2)",C[C@]12CCC(=O)C=C1CC[C@@H]1[C@@H]2CC[C@]2(C)C(=O)CC[C@@H]12,steady-state kinetics,,pH 7.4,,kcat,0.02 s⁻¹
rCR L34A (Lodderomyces parapsilosis),CC(=O)c1ccc(Cl)cc1,steady-state kinetics,,"pH 7, 30 °C, added: NADH 0.5 mM",,kcat,4.93 ± 0.08 s⁻¹
B5 (enzyme A477T),COc1cc(/C=C/CO)ccc1O,steady-state kinetics,,27 °C,,kcat,3.54 ± 1.43 s⁻¹
B6 (enzyme),O=C(O)CCC(=O)C1=CC=C[C@@H](O)[C@@H]1C(=O)O,steady-state kinetics,,"pH 8, 25 °C",,kcat,370 ± 40 s⁻¹
"TDP2 (Homo sapiens, UniProt O95551)",Cc1cn([C@H]2C[C@H](O)[C@@H](COP(=O)(O)Oc3ccc([N+](=O)[O-])cc3)O2)c(=O)[nH]c1=O,steady-state kinetics,,,,kcat,35 ± 2.8 s⁻¹
B7 (enzyme),NCCCNCCCCNCCCN,steady-state kinetics,,"pH 8, 37 °C, Hill n 1.7, added: AcCoA 1 mM",,kcat,23.7 ± 0.7 s⁻¹
insulin human,,refers to: NLGN1 mRNA,"uninfected mouse, brain","i.p., dose not given",relative to: PBS,fold change,1.24

# A few entries again:
Substance,target or system,assay,test system,setting,how to read,quantity,value
B4 (bglA S39T),O=[N+]([O-])c1ccc(O[C@@H]2O[C@H](CO)[C@@H](O)[C@H](O)[C@H]2O)cc1,steady-state kinetics,,"pH 5.5, 60 °C",,kcat,260 ± 8 s⁻¹
"fcl (Campylobacter jejuni, UniProt F2X7A6)",Nc1nc2c(ncn2[C@@H]2O[C@H](COP(=O)(O)OP(=O)(O)O[C@H]3O[C@@H](CCO)C(=O)[C@H](O)[C@@H]3O)[C@@H](O)[C@H]2O)c(=O)[nH]1,steady-state kinetics,,"pH 7.5, 25 °C, apparent",,kcat,0.27 ± 0.01 s⁻¹
